Experimental data gathered from unrelated publications.
Each numbered part is a random draw from the data of one study; scales do not carry over between parts. Values joined by “and” are separate records of one study, mostly repeats; a detail may differ.
UniProt P07948, sequence (whole entry, looked up): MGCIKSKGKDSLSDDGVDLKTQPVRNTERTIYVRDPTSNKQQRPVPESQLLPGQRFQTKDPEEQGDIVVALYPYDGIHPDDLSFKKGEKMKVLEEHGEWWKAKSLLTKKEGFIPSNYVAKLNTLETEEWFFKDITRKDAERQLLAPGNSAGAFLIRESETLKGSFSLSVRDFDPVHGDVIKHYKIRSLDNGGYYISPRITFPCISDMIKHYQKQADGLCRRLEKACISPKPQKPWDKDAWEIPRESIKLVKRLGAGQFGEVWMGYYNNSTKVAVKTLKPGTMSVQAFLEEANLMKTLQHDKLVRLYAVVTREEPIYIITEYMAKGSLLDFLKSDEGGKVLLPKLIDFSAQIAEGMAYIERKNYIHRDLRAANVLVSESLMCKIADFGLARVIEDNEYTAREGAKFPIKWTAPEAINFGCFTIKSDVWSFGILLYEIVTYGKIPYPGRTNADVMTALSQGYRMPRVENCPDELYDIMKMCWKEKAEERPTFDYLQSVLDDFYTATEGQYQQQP
UniProt P29376, sequence (whole entry, looked up): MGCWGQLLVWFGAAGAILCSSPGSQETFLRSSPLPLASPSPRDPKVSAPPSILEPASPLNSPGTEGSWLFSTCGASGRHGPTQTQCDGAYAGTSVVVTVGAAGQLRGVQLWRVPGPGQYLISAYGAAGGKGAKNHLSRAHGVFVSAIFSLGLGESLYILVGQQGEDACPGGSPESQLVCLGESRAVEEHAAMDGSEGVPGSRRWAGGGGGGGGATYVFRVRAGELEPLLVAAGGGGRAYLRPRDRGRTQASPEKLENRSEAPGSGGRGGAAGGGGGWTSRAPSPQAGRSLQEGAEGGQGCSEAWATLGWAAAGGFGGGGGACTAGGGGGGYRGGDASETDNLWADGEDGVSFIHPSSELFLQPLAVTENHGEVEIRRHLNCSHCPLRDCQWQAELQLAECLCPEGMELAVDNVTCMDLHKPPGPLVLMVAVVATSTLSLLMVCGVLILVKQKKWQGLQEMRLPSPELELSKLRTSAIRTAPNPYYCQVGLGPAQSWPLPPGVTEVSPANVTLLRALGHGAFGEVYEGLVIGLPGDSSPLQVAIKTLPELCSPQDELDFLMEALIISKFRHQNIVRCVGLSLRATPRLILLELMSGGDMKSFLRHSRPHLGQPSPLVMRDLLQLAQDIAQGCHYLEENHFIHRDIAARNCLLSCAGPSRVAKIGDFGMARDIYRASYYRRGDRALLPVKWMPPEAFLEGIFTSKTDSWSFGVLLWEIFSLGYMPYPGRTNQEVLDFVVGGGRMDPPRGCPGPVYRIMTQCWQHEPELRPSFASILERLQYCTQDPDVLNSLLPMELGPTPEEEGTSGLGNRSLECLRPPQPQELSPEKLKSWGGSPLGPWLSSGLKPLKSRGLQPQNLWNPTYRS
UniProt P51812, sequence (whole entry, looked up): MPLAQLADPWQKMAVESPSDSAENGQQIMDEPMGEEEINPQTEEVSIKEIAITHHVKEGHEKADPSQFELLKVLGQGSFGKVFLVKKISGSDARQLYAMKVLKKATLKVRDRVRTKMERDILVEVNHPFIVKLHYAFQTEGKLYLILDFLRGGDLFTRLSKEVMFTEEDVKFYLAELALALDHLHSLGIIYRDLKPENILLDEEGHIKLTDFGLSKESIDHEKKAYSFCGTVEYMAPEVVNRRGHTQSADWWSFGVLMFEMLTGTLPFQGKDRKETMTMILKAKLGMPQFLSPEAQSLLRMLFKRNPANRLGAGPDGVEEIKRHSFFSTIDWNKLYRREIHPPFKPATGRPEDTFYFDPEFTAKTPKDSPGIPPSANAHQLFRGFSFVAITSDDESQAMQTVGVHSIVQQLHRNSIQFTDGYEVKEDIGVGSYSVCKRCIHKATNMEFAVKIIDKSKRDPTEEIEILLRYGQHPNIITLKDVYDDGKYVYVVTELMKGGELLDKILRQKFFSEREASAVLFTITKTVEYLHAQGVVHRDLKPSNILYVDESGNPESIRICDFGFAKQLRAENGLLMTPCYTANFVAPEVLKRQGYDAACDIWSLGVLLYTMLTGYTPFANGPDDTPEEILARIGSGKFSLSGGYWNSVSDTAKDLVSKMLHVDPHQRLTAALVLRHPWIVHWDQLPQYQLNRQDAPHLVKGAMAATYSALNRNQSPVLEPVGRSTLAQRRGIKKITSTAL
UniProt Q9H422, sequence (whole entry, looked up): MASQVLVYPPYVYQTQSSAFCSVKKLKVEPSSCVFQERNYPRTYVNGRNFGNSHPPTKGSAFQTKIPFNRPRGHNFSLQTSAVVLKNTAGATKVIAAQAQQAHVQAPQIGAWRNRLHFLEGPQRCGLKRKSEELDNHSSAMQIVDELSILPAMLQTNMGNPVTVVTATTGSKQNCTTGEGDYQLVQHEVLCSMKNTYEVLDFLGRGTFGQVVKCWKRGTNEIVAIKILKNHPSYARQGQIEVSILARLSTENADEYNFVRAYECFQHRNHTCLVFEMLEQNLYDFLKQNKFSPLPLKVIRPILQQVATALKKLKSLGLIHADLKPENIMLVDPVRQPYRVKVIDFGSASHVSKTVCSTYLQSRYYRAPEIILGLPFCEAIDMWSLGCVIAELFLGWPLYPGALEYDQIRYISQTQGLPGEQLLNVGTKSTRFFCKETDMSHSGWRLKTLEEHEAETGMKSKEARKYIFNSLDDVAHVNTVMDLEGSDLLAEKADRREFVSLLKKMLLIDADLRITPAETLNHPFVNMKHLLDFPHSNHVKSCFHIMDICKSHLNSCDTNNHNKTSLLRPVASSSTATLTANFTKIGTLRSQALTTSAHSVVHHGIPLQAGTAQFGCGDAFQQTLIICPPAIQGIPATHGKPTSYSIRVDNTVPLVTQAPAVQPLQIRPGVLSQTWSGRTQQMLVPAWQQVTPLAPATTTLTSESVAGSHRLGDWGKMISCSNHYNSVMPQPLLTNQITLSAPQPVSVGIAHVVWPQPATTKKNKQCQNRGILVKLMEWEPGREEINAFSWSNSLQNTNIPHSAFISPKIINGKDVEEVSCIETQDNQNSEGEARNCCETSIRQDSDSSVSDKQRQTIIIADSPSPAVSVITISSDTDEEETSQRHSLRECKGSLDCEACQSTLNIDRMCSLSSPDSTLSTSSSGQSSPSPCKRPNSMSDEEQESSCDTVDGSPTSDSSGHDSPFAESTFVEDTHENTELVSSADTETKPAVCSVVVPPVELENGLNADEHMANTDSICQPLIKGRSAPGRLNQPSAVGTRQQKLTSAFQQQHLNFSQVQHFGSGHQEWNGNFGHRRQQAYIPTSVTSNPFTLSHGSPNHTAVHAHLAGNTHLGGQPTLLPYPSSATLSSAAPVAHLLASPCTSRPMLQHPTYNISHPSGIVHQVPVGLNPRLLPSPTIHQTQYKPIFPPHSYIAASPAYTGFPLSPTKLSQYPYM
UniProt Q96RR4, sequence (whole entry, looked up): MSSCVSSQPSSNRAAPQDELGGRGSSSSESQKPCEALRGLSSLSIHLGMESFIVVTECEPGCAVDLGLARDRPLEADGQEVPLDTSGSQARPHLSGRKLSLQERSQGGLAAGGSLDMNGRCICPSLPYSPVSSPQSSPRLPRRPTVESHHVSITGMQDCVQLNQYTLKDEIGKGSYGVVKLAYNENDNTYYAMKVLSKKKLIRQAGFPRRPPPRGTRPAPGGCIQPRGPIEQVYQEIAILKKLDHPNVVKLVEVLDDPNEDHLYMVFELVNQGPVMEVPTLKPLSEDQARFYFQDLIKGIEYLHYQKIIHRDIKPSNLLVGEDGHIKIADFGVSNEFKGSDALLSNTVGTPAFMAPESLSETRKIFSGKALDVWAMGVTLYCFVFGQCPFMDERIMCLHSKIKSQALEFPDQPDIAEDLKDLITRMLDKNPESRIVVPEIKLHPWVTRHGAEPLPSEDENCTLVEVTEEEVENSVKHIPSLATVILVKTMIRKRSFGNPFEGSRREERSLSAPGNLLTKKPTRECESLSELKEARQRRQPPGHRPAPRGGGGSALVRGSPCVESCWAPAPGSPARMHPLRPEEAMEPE

Sample 1
Target: Dual specificity tyrosine-phosphorylation-regulated kinase 2 (DYRK2, Homo sapiens, UniProt Q92630)
Read-out: enzyme activity
Action: inhibitor
Concentration: 0.5 µM
Reference: control
Target sequence (Q92630 1-601): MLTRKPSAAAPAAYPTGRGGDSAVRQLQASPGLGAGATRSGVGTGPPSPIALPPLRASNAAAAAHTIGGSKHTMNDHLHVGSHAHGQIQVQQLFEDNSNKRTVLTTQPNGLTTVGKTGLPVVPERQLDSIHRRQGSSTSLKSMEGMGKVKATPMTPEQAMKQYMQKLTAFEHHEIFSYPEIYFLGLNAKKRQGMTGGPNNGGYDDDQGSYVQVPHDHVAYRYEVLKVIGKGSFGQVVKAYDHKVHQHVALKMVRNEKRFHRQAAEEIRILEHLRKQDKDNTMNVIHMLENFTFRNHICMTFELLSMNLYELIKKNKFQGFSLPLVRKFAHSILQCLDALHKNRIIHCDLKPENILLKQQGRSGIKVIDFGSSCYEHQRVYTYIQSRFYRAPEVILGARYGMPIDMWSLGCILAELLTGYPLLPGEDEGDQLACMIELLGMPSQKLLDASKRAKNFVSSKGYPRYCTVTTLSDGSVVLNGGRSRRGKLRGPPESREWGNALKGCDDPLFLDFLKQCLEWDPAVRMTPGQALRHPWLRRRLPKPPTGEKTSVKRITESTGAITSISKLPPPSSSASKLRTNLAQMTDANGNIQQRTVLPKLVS
For `Nc1ncnc2n[nH]c(Nc3ccc(F)cc3)c12`, the remaining activity was 90.6%.
For `OCC(O)CCON=C1C(c2c(O)[nH]c3ccccc23)=Nc2ccccc21` (stereo not shown), the remaining activity was 61.4%.
The remaining activity of `O=C1NC(=O)C(c2cn(CCCn3ccnc3)c3ccccc23)=C1Nc1ccccc1` is reported as 97.3%.
For `NCCNc1ncc(C(N)=O)c(Nc2cccc(C(F)(F)F)c2)n1`, the remaining activity was 91.2%.
The remaining activity of `O=C1NC(=O)C(c2cn(CCCO)c3ncccc23)=C1c1cnccn1` is reported as 81.7%.
For `CO[C@H]1C[C@@H]2CC[C@@H](C)[C@@](O)(O2)C(=O)C(=O)N2CCCC[C@H]2C(=O)O[C@H]([C@H](C)C[C@@H]2CC[C@@H](O)[C@H](OC)C2)CC(=O)[C@H](C)/C=C(\C)[C@@H](O)[C@@H](OC)C(=O)[C@H](C)C[C@H](C)/C=C/C=C/C=C/1C`, the remaining activity was 100%.
`N#CC(C#N)=C(N)/C(C#N)=C/c1ccc(O)cc1` gave a remaining activity of 117%.
`O=c1c2ccccc2[nH]c(=S)n1CCN1CCC(=C(c2ccc(F)cc2)c2ccc(F)cc2)CC1` gave a remaining activity of 95.4%.
With `Cc1ccc(Nc2nccc(N(C)c3ccc4c(C)n(C)nc4c3)n2)cc1S(N)(=O)=O` the remaining activity was 98.8%.
The remaining activity of `CCOC(=O)c1c(C)[nH]c(/C=C2\C(=O)Nc3ccccc32)c1C` is reported as 92.4%.
With `O=S(=O)(c1cccc2cnccc12)N1CCCNCC1` the remaining activity was 97.9%.
With `Nc1[nH]nc2nc3ccccc3nc12` the remaining activity was 91.6%.
`Cn1sc(=O)n(Cc2ccccc2)c1=O` has a remaining activity of 104%.
`Cn1c2ccccc2c2c3c(c4c5ccccc5n(CCC#N)c4c21)CNC3=O` gave a remaining activity of 48.9%.
With `COc1ccc(CNC(=O)Nc2ncc([N+](=O)[O-])s2)cc1` the remaining activity was 103%.
`COc1cc2ncnc(Nc3ccc(F)c(Cl)c3)c2cc1OCCCN1CCOCC1` gave a remaining activity of 98.2%.

Sample 2
Organism: Sarcocystis neurona
Read-out: parasite growth
Concentration: 10 µM
Time: 96 h
Notes: secondary screen
With `CCOC(=O)[C@@]1(CCCCCCOc2ccc(Cl)cc2)CO1` the inhibition was -14%.
`NC[C@H]1CC[C@H](C(=O)Oc2ccc(CCC(=O)O)cc2)CC1` gave an inhibition of -26.1%.
The inhibition of `CCCc1c(OCCCCc2nnn[nH]2)ccc(C(C)=O)c1O` is reported as -20.4%.
`CN1CCN(CCCN2c3ccccc3Sc3ccc(C(F)(F)F)cc32)CC1` gave an inhibition of -17.8%.
`Cc1cccc(Nc2ccncc2S(=O)(=O)NC(=O)NC(C)C)c1` gave an inhibition of -13.4%.
With `COc1ccc(OC)c(C(O)CNC(=O)CN)c1` (stereo not shown) the inhibition was -16.9%.
For `CCN(CC)CCNC(=O)c1ccc(N)cc1`, the inhibition was -10.4%.

Sample 3
SMILES: CNC(=O)Nc1ccc2c(c1)CC[C@@]21OC(=O)N(CC(=O)N(Cc2ccc(F)cc2)[C@@H](C)C(F)(F)F)C1=O
Read-out: cell-free assay
Method: competition with immobilised ligand
Concentration: 1 µM
The remaining binding was 87% (Ribosomal protein S6 kinase alpha-3, C-terminal kinase domain (RPS6KA3, Homo sapiens, UniProt P51812)).
Tyrosine-protein kinase Lyn (LYN, Homo sapiens, UniProt P07948) — remaining binding: 89%.
For Leukocyte tyrosine kinase receptor (LTK, Homo sapiens, UniProt P29376): remaining binding read 100%.
For Calcium/calmodulin-dependent protein kinase kinase 2 (CAMKK2, Homo sapiens, UniProt Q96RR4): remaining binding read 76%.
It gave 100% for remaining binding (STE20/SPS1-related proline-alanine-rich protein kinase (STK39, Homo sapiens, UniProt Q9UEW8)).
The remaining binding was 73% (Homeodomain-interacting protein kinase 3 (HIPK3, Homo sapiens, UniProt Q9H422)).
Epidermal growth factor receptor (EGFR, Homo sapiens, UniProt P00533, A750P/del747-749) — remaining binding: 95%.

Sample 4
Structure (SMILES): CC(C)(C)c1cnc(CSc2cnc(NC(=O)C3CCN(C(=O)CCCSc4cccc5c4C(=O)N(C4CCC(=O)NC4=O)C5=O)CC3)s2)o1 (stereo not shown)
Cell line: HH
Method: CCK-8
For 200 nM: viability read 91.3% and 92.9%.
The viability was 81.4% and 84.2% (250 nM).
The viability was 100% and 97.3% (10 nM).
50 nM — viability: 100% and 97.5%.

A few entries again (sample 3):
Epidermal growth factor receptor (EGFR, Homo sapiens, UniProt P00533, A750P/del747-749) — remaining binding: 95%.
Tyrosine-protein kinase Lyn (LYN, Homo sapiens, UniProt P07948) — remaining binding: 89%.
The remaining binding was 73% (Homeodomain-interacting protein kinase 3 (HIPK3, Homo sapiens, UniProt Q9H422)).
For Calcium/calmodulin-dependent protein kinase kinase 2 (CAMKK2, Homo sapiens, UniProt Q96RR4): remaining binding read 76%.
It gave 100% for remaining binding (STE20/SPS1-related proline-alanine-rich protein kinase (STK39, Homo sapiens, UniProt Q9UEW8)).
The remaining binding was 87% (Ribosomal protein S6 kinase alpha-3, C-terminal kinase domain (RPS6KA3, Homo sapiens, UniProt P51812)).
